Published values pooled from the literature.
“And” joins repeats or separate records; there may be more than shown. ± marks the error that the study gave.
CYP3A4: Cytochrome P450 3A4 (CYP3A4, Homo sapiens, UniProt P08684)
Chain of UniProt P08684 (whole entry, looked up): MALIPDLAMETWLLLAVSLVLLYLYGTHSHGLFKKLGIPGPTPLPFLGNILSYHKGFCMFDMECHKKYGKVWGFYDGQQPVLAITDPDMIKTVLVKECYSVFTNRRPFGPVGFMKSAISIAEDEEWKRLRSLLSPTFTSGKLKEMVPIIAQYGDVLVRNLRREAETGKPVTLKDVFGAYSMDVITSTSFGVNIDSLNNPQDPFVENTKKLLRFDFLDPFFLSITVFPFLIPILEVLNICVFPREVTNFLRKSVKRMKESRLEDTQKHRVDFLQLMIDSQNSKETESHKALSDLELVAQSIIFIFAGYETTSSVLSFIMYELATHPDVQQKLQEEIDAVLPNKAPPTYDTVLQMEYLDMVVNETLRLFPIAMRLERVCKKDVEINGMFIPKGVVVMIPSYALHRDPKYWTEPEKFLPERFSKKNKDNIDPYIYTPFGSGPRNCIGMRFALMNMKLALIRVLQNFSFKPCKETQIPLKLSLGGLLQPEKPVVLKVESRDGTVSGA
ABCG2: Broad substrate specificity ATP-binding cassette transporter ABCG2 (ABCG2, Homo sapiens, UniProt Q9UNQ0)
Chain of UniProt Q9UNQ0 (whole entry, looked up): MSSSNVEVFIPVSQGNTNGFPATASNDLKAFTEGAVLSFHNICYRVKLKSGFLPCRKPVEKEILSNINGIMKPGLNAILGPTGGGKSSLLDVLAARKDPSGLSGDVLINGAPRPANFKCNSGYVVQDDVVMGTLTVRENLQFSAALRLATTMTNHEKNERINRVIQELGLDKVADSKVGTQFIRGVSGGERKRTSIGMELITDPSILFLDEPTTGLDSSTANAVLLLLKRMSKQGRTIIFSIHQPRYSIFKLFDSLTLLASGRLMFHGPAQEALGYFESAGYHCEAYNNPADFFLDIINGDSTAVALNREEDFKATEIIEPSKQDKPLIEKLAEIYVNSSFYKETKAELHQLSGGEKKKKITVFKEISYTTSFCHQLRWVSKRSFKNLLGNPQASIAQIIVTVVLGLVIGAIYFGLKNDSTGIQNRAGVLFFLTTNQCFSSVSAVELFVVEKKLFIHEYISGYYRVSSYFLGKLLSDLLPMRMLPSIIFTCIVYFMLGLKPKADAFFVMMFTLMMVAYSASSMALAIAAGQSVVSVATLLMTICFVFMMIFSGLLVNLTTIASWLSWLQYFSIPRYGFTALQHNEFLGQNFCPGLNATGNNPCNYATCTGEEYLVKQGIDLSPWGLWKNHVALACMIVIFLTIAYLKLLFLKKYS
Chain of UniProt P11509 (whole entry, looked up): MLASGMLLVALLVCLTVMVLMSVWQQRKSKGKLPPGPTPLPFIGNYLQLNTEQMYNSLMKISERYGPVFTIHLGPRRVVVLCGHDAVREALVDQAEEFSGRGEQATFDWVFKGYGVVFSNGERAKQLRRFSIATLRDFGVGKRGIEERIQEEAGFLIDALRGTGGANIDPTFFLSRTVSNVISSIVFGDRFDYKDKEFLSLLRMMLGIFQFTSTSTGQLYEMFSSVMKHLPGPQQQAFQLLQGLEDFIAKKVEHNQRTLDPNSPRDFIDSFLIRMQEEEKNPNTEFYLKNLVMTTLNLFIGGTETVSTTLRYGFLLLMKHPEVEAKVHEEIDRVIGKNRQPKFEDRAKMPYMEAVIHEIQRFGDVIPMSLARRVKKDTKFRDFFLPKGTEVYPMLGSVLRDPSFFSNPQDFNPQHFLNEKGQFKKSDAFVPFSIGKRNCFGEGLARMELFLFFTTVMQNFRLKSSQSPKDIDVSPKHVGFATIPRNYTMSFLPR
Chain of UniProt Q53GS9 (whole entry, looked up): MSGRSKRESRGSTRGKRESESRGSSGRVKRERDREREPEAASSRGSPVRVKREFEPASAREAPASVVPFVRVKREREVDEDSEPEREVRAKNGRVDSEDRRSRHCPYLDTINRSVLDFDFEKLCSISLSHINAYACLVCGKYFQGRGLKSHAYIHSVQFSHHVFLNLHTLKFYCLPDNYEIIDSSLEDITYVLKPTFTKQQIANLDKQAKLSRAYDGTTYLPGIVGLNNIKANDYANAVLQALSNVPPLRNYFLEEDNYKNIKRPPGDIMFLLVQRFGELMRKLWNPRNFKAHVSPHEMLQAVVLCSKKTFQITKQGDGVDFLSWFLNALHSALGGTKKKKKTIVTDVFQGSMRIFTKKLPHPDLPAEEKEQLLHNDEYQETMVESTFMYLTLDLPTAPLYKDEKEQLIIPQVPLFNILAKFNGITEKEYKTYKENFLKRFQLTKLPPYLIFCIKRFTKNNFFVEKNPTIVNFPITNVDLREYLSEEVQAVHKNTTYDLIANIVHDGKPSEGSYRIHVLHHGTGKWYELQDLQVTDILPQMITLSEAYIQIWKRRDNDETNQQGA
Chain of UniProt Q12809 (whole entry, looked up): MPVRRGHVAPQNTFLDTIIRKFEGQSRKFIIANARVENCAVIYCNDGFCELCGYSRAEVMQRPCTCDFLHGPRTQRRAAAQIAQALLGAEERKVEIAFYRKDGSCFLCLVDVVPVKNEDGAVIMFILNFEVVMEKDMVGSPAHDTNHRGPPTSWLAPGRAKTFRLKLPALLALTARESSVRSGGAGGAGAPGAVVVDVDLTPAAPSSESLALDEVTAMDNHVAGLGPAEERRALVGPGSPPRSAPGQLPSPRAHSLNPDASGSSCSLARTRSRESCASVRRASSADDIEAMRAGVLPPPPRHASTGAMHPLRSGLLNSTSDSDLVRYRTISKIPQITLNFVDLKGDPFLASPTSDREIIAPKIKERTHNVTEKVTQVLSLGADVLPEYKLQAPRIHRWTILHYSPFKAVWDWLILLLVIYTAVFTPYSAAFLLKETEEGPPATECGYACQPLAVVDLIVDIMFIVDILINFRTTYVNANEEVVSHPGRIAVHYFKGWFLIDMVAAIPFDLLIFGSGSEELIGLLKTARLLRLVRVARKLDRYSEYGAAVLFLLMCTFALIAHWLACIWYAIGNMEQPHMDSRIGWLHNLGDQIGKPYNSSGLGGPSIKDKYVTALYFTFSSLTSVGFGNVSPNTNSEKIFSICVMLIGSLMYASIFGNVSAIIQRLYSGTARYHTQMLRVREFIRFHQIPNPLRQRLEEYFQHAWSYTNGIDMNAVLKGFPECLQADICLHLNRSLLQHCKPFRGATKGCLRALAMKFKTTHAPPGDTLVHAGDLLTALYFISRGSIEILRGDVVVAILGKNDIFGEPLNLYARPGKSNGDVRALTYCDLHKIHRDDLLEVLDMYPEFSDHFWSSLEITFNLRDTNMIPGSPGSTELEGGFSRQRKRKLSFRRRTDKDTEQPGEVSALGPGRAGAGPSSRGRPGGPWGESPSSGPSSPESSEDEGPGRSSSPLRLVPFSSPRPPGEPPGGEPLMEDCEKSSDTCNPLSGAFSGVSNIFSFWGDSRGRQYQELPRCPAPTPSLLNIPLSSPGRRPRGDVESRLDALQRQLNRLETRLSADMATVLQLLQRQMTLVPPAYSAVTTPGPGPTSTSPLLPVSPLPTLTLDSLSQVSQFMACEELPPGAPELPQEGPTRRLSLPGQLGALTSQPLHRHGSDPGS

CC[C@H]1[C@@H](O)[C@@H]2[C@H](CC[C@]3(C)[C@@H]([C@H](C)CCNC(=O)NS(=O)(=O)c4ccc(C(C)(C)C)cc4)CC[C@@H]23)[C@@]2(C)CC[C@@H](O)C[C@@H]12  AUC(0-t) geometric mean (CYP3A4; human, plasma; 10 mg, day 1, compound alone): 386 ng·h/mL
COc1cc(O)c(CC=C(C)C)c(O)c1C(=O)/C=C/c1ccc(O)cc1  inhibition (CYP3A4 (human); enzyme activity, inhibitor; human liver microsomes; 1 µM, pH 7.4, added: midazolam): < 10%
CC(C)c1nc(N(C)S(C)(=O)=O)nc(-c2ccc(F)cc2)c1/C=C/[C@@H](O)C[C@@H](O)CC(=O)O  Papp (A to B) (ABCG2; substrate; Caco-2; 5 µM, 2 h, added: Ko143 5 µM): 0.36 ± 0.03 ×10⁻⁶ cm/s
O=C(O)CCCc1ccccc1  z-scored log2 fold change (binding, equilibrium dialysis LC-MS; 5 µM, thermostabilized A2AR-BRIL construct; reference: no-protein control, direction not given): 0.0779
[H]/N=C(/N)c1ccc(NCc2nc3cc(C(=O)N(CCC(=O)O)c4ccccn4)ccc3n2C)cc1  AUCinf ratio (P-glycoprotein; substrate; healthy human, plasma; oral, adjusted geometric mean, added: vepdegestrant; reference: with vepdegestrant over alone): 198%
O=C(O)CN1Cc2ccccc2C1=O  Kd (Ubiquitin carboxyl-terminal hydrolase 39, ZnF-UBD domain (Homo sapiens, UniProt Q53GS9)): > 1 mM
NC(=O)c1ccc[n+]([C@@H]2O[C@H](COP(=O)([O-])OP(=O)(O)OC[C@H]3O[C@@H](n4cnc5c(N)ncnc54)[C@H](O)[C@@H]3O)[C@@H](O)[C@H]2O)c1  z-scored log2 fold change (binding, equilibrium dialysis LC-MS; 5 µM, thermostabilized A2AR-BRIL construct; reference: no-protein control, direction not given): 0.0457
COc1ccc(F)cc1C(=O)NCc1ccc(-c2nn([C@@H](C)C(F)(F)F)c(N)c2C(N)=O)cc1  AUC(0-inf) (CYP3A4; human, both sexes, plasma; oral, 200 mg, single dose, added: rifampin): 23600 ng·h/mL
N#C[C@H](C[C@@H]1CCCNC1=O)NC(=O)[C@H](CC1CC1)NC(=O)c1cc2cccc(Cl)c2[nH]1  fraction metabolised (Cytochrome P450 2A6 (CYP2A6, Homo sapiens, UniProt P11509); ISEF abundance scaling; 2 µM, pH 7.4): < 1%
C[C@]12CCCN1CC1=NNC(=O)c3cc(F)cc4[nH]c2c1c34  uptake rate (ABCG2; substrate; membrane vesicles; 5 µM, added: AMP): 1.06 ± 0.276 pmol/min/mg
Cc1cc(/C=C/C#N)cc(C)c1Nc1ccnc(Nc2ccc(C#N)cc2)n1  inhibition (Voltage-gated inwardly rectifying potassium channel KCNH2 (KCNH2, Homo sapiens, UniProt Q12809); hERG current, manual patch clamp; CHO stably expressing hERG; 0.1 µM): 3.6%
COc1cc(O)c(CC=C(C)C)c2c1C(=O)CC(c1ccc(O)cc1)O2 (stereo not shown)  inhibition (CYP3A4 (human); enzyme activity, inhibitor; human liver microsomes; 1 µM, pH 7.4, added: midazolam): < 10%
COc1ccc2c3c([nH]c2c1)[C@H](CC(C)C)N1C(=O)[C@H](CC(=O)NC(C)C)NC(=O)[C@@H]1C3  inhibition (ABCG2; inhibitor, refers to: protoporphyrin IX; A549; 0.05 µM, 2 h, added: 1 mM ALA): 35.3% and -3.04% and -1.12% and 29.7%

Some of these lines once more:
COc1ccc(F)cc1C(=O)NCc1ccc(-c2nn([C@@H](C)C(F)(F)F)c(N)c2C(N)=O)cc1  AUC(0-inf) (CYP3A4; human, both sexes, plasma; oral, 200 mg, single dose, added: rifampin): 23600 ng·h/mL
